# Experimental data of several laboratories.
# ± marks the error that the study gave.
# Rhomboid protease AarA: Rhomboid protease AarA (Providencia stuartii, UniProt P46116)
# Chain of UniProt P46116 (whole entry, looked up): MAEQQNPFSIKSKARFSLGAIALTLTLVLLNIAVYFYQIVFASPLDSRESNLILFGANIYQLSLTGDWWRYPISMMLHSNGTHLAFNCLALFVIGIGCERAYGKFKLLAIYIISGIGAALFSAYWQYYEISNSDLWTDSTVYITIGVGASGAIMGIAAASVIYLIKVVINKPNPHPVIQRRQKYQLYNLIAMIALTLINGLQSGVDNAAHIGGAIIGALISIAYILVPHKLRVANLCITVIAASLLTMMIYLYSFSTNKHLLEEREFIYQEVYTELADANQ
# CASP1: Caspase-1 (CASP1, Homo sapiens, UniProt P29466)
# Chain of UniProt P29466 (whole entry, looked up): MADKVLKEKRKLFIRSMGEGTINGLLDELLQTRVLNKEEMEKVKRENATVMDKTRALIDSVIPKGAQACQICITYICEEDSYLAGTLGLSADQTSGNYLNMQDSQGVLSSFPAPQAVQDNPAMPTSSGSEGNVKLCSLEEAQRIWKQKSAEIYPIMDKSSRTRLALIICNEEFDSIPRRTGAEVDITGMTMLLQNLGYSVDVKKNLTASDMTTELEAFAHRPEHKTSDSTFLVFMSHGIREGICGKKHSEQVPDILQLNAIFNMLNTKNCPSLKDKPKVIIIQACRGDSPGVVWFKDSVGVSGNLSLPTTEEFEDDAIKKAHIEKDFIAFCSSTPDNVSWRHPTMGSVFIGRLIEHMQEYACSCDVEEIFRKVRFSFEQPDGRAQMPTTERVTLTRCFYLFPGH
# Chain of UniProt Q5XJY4 (whole entry, looked up): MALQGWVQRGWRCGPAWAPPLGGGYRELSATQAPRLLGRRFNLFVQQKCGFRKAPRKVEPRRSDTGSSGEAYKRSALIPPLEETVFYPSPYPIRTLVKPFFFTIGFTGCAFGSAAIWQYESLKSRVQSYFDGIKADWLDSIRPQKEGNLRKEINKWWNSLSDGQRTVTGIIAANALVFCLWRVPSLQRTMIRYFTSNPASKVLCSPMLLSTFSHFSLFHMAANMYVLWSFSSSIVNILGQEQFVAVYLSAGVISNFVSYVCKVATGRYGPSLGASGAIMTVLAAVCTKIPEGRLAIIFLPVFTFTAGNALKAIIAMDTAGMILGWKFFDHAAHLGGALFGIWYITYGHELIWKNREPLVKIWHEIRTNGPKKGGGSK
# Chain of UniProt P41587 (whole entry, looked up): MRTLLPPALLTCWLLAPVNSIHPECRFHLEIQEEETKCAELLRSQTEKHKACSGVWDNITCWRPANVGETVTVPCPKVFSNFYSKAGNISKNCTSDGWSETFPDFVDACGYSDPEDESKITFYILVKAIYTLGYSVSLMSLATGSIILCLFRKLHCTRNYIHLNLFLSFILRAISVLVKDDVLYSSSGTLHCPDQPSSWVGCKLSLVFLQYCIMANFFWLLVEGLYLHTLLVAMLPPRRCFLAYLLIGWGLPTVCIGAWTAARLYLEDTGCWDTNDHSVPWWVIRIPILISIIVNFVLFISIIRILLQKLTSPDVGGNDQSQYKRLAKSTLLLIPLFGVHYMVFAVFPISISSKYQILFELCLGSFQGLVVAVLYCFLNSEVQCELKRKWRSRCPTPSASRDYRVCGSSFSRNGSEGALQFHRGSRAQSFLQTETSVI
# Chain of UniProt Q9BQ69 (whole entry, looked up): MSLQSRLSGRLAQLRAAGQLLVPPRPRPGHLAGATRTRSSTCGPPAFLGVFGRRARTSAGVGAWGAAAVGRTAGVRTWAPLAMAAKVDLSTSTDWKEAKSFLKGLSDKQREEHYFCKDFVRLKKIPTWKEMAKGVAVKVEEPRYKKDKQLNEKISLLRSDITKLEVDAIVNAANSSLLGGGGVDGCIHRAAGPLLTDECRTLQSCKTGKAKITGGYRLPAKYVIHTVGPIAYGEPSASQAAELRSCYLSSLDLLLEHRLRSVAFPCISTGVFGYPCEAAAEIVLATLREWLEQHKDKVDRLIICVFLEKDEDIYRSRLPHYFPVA
# Chain of UniProt P51531 (whole entry, unmodified, looked up): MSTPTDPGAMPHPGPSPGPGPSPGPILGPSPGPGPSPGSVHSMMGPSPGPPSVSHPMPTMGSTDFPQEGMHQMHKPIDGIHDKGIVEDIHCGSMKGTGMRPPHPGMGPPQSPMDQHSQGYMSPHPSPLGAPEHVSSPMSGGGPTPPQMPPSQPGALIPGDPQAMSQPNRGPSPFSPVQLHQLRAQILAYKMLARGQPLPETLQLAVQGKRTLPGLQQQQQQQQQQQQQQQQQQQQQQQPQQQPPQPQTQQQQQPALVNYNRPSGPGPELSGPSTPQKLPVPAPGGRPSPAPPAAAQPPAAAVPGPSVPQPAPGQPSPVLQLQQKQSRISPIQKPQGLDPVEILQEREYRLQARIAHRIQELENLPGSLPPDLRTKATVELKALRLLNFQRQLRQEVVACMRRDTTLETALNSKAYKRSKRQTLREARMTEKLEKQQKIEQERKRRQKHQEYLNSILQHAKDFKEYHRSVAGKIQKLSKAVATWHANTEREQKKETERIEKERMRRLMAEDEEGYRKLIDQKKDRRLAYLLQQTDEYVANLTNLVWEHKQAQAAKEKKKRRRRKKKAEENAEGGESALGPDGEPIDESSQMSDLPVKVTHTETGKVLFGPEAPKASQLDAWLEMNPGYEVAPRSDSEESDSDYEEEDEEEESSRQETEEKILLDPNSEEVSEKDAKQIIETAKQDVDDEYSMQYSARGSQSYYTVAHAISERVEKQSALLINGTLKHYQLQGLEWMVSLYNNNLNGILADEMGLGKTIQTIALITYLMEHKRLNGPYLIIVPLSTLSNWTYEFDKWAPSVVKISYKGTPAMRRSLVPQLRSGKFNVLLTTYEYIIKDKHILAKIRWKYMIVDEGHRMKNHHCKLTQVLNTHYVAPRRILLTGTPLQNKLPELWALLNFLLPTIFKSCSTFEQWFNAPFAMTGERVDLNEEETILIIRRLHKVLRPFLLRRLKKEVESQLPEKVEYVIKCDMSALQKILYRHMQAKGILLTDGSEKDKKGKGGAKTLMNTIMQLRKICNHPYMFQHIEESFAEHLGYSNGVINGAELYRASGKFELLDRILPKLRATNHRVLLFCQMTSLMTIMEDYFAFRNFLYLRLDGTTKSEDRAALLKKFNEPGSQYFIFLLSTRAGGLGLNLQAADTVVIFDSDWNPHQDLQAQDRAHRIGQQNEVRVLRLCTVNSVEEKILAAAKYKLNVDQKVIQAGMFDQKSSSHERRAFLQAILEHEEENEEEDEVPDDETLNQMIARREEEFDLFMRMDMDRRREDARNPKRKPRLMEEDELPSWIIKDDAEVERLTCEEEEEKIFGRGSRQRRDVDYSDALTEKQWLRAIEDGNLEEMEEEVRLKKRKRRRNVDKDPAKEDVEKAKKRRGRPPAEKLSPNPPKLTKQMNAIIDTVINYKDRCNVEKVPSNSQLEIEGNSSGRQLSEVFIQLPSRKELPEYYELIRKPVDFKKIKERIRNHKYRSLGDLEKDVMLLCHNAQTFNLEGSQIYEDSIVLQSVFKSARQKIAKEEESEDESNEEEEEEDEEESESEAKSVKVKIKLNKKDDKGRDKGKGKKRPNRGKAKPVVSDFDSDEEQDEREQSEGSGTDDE
# Chain of UniProt Q9NRM0 (whole entry, looked up): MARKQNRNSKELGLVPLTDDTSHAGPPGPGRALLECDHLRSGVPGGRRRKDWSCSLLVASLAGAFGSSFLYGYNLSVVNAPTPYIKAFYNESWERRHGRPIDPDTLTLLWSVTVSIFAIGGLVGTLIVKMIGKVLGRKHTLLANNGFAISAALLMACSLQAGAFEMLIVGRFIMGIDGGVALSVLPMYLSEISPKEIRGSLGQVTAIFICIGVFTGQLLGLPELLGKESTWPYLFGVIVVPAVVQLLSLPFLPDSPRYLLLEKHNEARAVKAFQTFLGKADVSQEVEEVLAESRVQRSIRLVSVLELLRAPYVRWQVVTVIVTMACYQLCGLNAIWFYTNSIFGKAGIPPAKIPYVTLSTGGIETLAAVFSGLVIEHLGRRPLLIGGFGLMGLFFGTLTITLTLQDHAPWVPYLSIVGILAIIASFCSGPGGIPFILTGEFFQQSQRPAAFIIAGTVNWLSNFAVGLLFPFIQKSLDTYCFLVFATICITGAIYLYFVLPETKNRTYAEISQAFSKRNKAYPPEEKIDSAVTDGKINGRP
# Chain of UniProt P98170 (whole entry, looked up): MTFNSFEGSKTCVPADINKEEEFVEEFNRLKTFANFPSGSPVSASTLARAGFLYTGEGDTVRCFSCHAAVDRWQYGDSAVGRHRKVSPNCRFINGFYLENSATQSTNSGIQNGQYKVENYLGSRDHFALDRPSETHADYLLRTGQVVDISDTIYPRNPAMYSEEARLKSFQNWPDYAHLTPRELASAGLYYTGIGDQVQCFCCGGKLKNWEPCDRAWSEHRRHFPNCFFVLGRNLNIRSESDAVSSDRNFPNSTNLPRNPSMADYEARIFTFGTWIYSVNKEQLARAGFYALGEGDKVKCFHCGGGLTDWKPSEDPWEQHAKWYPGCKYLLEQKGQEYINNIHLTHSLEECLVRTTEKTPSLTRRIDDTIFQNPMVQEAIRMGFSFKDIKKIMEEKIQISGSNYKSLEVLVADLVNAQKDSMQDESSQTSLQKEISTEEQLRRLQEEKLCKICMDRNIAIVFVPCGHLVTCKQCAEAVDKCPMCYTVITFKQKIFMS
# Chain of UniProt P51681 (whole entry, looked up): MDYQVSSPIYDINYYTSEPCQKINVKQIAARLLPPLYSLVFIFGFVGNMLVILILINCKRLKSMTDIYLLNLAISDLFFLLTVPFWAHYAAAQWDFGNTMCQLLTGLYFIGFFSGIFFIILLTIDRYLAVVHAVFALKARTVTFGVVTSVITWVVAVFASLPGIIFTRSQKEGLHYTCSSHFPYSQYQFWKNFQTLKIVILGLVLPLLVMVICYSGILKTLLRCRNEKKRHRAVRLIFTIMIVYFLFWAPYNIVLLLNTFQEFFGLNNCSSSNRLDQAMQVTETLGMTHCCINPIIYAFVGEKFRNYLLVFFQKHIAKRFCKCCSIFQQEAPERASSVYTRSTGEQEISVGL
# Chain of UniProt O95881 (whole entry, looked up): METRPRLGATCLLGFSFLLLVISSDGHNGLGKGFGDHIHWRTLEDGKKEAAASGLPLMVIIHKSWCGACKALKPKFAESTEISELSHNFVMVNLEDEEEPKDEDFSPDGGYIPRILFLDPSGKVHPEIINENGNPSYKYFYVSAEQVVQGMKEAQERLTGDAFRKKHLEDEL
Compound,target,assay,test system,conditions,how to read,measurement,result
COc1ccc(Cl)cc1NC(=O)C1CC1,Rhomboid protease AarA,"enzyme activity, inhibitor, fluorogenic peptide substrate",,,,IC50,inactive
Cn1c(=O)n(C2CCC(=O)NC2=O)c2ccc(C3CCN(CC(=O)Nc4cccc(CS(=O)(=O)N5CC[C@H](Nc6cccc(-c7sc(C(=O)O)c(OCC(=O)O)c7Cl)c6)CC5(C)C)c4)CC3)cc21 (some centres unmarked),"PTPN2 (Homo sapiens, UniProt P17706, E41K/R35E/R43E)","degrader, bio-layer interferometry",,500 nM,higher = more binding,BLI binding response,0.622 a.u.
O=C(N1CCCC1)n1cc(-c2ccc(-c3ccccc3)cc2)nn1,"Presenilin-associated rhomboid-like protein, mitochondrial (Parl, Mus musculus, UniProt Q5XJY4)","enzyme activity, inhibitor, competitive ABPP-SILAC, refers to: Parl",mouse T-cells,"concentration not given, 4 h, treated in situ",relative to: DMSO,activity ratio,1.3
O=C(O)/C=C/c1ccccc1,"PAL1 (Petroselinum crispum, UniProt P24481, Y110F)","binding, ITC",,,,-TΔS,16.3 kcal/mol
CC(=O)N[C@@H](CC(C)C)C(=O)N[C@@H](Cc1ccccc1)C(=O)N[C@@H](CO)C(=O)N[C@@H](CC(=O)O)C(=O)COC(=O)c1c(C)cccc1C,CASP1,inhibitor,,recombinant enzyme,,kobs/[I],34000 M⁻¹ s⁻¹
Cc1nnc(C(C)C)n1C1CC2CCC(C1)N2CCC(NC(=O)COCCOCCNC(=O)Cc1ccc(-c2nncnn2)cc1)c1ccccc1 (centres unmarked),"CCR5 (Homo sapiens, UniProt P51681)","calcium mobilisation, antagonist",HEK-293T expressing CCR5,"top constrained to 1, together with: PSC-RANTES",,bottom of curve,0.314 fraction of maximum
CCCCCCOc1ccc(C(=O)OCC[N+]2(C)CC=CCC2)cc1 (centres unmarked),"CHRM4 (Homo sapiens, UniProt P08173)",,membranes,"100 µM, 15 h, no carbachol",relative to: control,basal binding,0.62 ± 0.02 fold
CC(=O)N[C@H](C(=O)N[C@@H](CCCNC(N)=O)C(=O)N[C@@H](CCO)C(=O)N[C@@H](CC(=O)O)C(=O)COC(=O)c1c(C)cccc1C)C1CCCCC1,CASP1,"enzyme activity, inhibitor",,,,kinact/KI,5600 M⁻¹ s⁻¹
O=C(N[C@@H](Cc1ccc(OCCCCC2CCNCC2)cc1)C(=O)O)c1nc2ccccc2o1.O=C(O)C(F)(F)F,"Integrin alpha-IIb/beta-3 (Homo sapiens, UniProt P05106+P08514)","inhibitor, flow cytometry","washed platelets, human","15 nM, together with: ADP and Alexa647-fibrinogen",relative to: untreated,fibrinogen binding,0.88
CSCC[C@H](NC(=O)[C@H](CCC(N)=O)NC(=O)[C@H](CCCCN)NC(=O)[C@H](CCCNC(=N)N)NC(=O)[C@H](Cc1ccc(O)cc1)NC(=O)[C@H](CCCNC(=N)N)NC(=O)[C@H](CO)NC(=O)[C@H](Cc1ccc(O)cc1)NC(=O)[C@H](CO)NC(=O)[C@H](CC(=O)O)NC(=O)[C@@H](NC(=O)[C@@H](N)Cc1ccccc1)[C@@H](C)O)C(=O)N[C@@H](C)C(=O)N[C@H](C(=O)N[C@@H](CCCCN)C(=O)N[C@@H](CCCCN)C(=O)N[C@@H](Cc1ccc(O)cc1)C(=O)N[C@@H](CC(C)C)C(=O)N[C@@H](C)C(=O)N[C@@H](C)C(=O)N[C@H](C(=O)N[C@@H](CC(C)C)C(=O)NCC(=O)N[C@@H](CCCCN)C(=O)N[C@@H](CCCNC(=N)N)C(=O)N[C@@H](Cc1ccc(O)cc1)C(=O)N[C@@H](CCCCN)C(=O)N[C@@H](CCC(N)=O)C(=O)N[C@@H](CCCNC(=N)N)C(=O)N[C@H](C(=O)N[C@@H](CCCCN)C(=O)N[C@@H](CC(N)=O)C(=O)N[C@@H](CCCCn1cc(C[C@H](NC(=O)CNC(=O)[C@H](CO)NC(=O)[C@H](CCCNC(=N)N)NC(=O)[C@H](CO)NC(=O)[C@H](CC(C)C)NC(=O)[C@H](CC(C)C)NC(=O)CNC(=O)[C@H](C)NC(=O)[C@H](CC(C)C)NC(=O)[C@H](CCCNC(=N)N)NC(=O)[C@H](Cc2c[nH]cn2)NC(=O)[C@@H](NC(=O)[C@@H](N)C(C)C)[C@@H](C)O)C(=O)N[C@H](C(=O)N[C@H](C(=O)N[C@@H](CCCCN)C(=O)N[C@@H](CC(N)=O)C(=O)N[C@@H](CC(N)=O)C(=O)N[C@@H](Cc2ccccc2)C(=O)N[C@H](C(=O)N2CCC[C@H]2C(=O)N[C@H](C(=O)N[C@@H](CC(N)=O)C(=O)N[C@H](C(=O)NCC(=O)N[C@@H](CO)C(=O)N[C@@H](CCCCN)C(=O)N[C@@H](C)C(=O)N[C@@H](Cc2ccccc2)C(N)=O)C(C)C)[C@@H](C)O)C(C)C)C(C)C)C(C)C)nn1)C(N)=O)C(C)C)C(C)C)C(C)C,"VIPR2 (Homo sapiens, UniProt P41587)","cAMP accumulation, antagonist",transfected COS-7 cells,together with: PACAP-38,,antagonist potency,2090 nM
Cc1cc(C(=O)Nc2nc3cccc(C)c3n2[C@H]2CCCCN(C(=O)/C=C/CN(C)C)C2)ccn1,"CDC2-like kinase 1 (Trypanosoma brucei brucei, UniProt Q382U0)",ADP-Glo,,0.625 µM,,kinase activity,0.92%
CC(C)[C@@H]1NC(=O)[C@H](Cc2ccccc2)NC(=O)CSC[C@@H](C(N)=O)NC(=O)[C@H](CCC(=O)O)NC(=O)[C@H](CO)NC(=O)[C@H](Cc2c[nH]c3cccc(Cl)c23)NC(=O)[C@H](C2CCCCC2)NC(=O)[C@H](C(C)C)NC(=O)[C@H](Cc2ccc(O)cc2)NC(=O)[C@H](CC(=O)O)NC(=O)[C@H](Cc2c[nH]c3ccccc23)NC(=O)[C@H](Cc2ccc(N)nc2)NC(=O)[C@H](Cc2c[nH]c3ccc(Cl)cc23)NC(=O)[C@H](CCC(=O)O)NC1=O,"Interleukin-1 receptor-like 2 (IL1RL2, Homo sapiens, UniProt Q9HB29)","reporter gene (SEAP), inhibitor, HEK-Blue IL-36R reporter",HEK-Blue IL-36R cells,"0.0017 µM, 6 h, together with: IL-36γ 100 ng/mL",,remaining activity,103%
O=S(=O)(c1ccc(Cl)cc1)N1CCC1c1ccccc1 (centres unmarked),Rhomboid protease AarA,"enzyme activity, inhibitor, fluorogenic peptide substrate",,,,IC50,inactive
C#CCCCCNC(=O)c1ccc(N(C(=O)C=C)c2ccc(Br)cc2)cc1,"Thioredoxin domain-containing protein 12 (TXNDC12, Homo sapiens, UniProt O95881)",mass spectrometry profiling,H460 cell lysate,"100 µM over 10 µM, UniProt O95881",relative to: high over low concentration,reactivity ratio,4.39
C=CC(=O)N1CC2(CCN(c3nc(OC4CCN(CCCOC)CC4)nc4c(OCC(F)(F)F)c(-c5c(C)ccc6[nH]ncc56)c(C5CC5)cc34)CC2)C1,"GTPase KRas, GDP-bound (KRAS, Homo sapiens, UniProt P01116, G12V)",SPR,,,,dissociation rate constant koff,0.478 ± 0.0098 s⁻¹
CCCCCC=CC=C1C(=O)C=CC1CC=CCCCC(=O)O (centres unmarked),"ADP-ribose glycohydrolase MACROD1 (Homo sapiens, UniProt Q9BQ69)",competitive isoTOP-ABPP,"proteome, soluble, MDA-MB-231","100 µM, 60 min, together with: iodoacetamide probe","relative to: DMSO over compound-treated, higher = stronger cysteine blockade",isoTOP-ABPP competition ratio,6.5
O=S(=O)(O)c1cccc2c(S(=O)(=O)O)cccc12,"E3 ubiquitin-protein ligase XIAP, BIR1 domain (XIAP, Homo sapiens, UniProt P98170)",thermal shift (Sypro Orange),,"1.0 mM, together with: XIAP 80 µM",relative to: apoprotein,delta Tm,-2.5 °C
CC1C(=O)N(S(=O)(=O)c2ccccc2)C1c1ccccc1 (centres unmarked),Rhomboid protease AarA,"substrate cleavage, inhibitor, gel-based",,,,IC50,inactive
CCn1cc(-c2cccc(C(F)(F)F)c2)c2sc(C(=N)NC3CCS(=O)(=O)CC3)cc2c1=O,"SMARCA2 (Homo sapiens, UniProt P51531)",,,,,ΔTm,-1.8 °C
CC(=O)N[C@@H](CC(C)C)C(=O)N[C@@H](CCC(N)=O)C(=O)N[C@@H](CCC(=O)O)C(=O)N[C@@H](CC(=O)O)C(=O)COC(=O)c1c(C)cccc1C,CASP1,inhibitor,,recombinant enzyme,,kobs/[I],26600 M⁻¹ s⁻¹
O=C(NS(=O)(=O)c1cccs1)c1cc2ccccc2n1Cc1ccc(Br)c2ccccc12,"SLC2A9 (Homo sapiens, UniProt Q9NRM0)","binding, SPR",,,,kon,3260 M⁻¹ s⁻¹
CN(C)c1ccc(C2C(C#N)=C(N)Oc3n[nH]c(-c4cccc5ccccc45)c32)cc1 (centres unmarked),"Heat shock protein HSP 90-alpha, N-terminal domain (HSP90AA1, Homo sapiens, UniProt P07900)","SPR, two-state model",N-terminal domain,,,kon,2860 ± 2790 M⁻¹ s⁻¹
Cc1cc(=O)oc2c(F)c(OP(=O)(O)O)c(F)cc12,"Phosphoribosylformylglycinamidine synthase (Homo sapiens, UniProt O15067)",substrate,,,,Km,108 ± 6.6 µM

# A few entries again:
Compound,target,assay,test system,conditions,how to read,measurement,result
C#CCCCCNC(=O)c1ccc(N(C(=O)C=C)c2ccc(Br)cc2)cc1,"Thioredoxin domain-containing protein 12 (TXNDC12, Homo sapiens, UniProt O95881)",mass spectrometry profiling,H460 cell lysate,"100 µM over 10 µM, UniProt O95881",relative to: high over low concentration,reactivity ratio,4.39
C=CC(=O)N1CC2(CCN(c3nc(OC4CCN(CCCOC)CC4)nc4c(OCC(F)(F)F)c(-c5c(C)ccc6[nH]ncc56)c(C5CC5)cc34)CC2)C1,"GTPase KRas, GDP-bound (KRAS, Homo sapiens, UniProt P01116, G12V)",SPR,,,,dissociation rate constant koff,0.478 ± 0.0098 s⁻¹
